Measurements of several laboratories.
Each line is one published result; not all experiments were run side by side.
Target: Serine/threonine-protein kinase PknB (pknB, Mycobacterium tuberculosis, UniProt P9WI81)

COc1cc(Nc2nccc(-c3cnn4nc(OC)ccc34)n2)cc(C(F)(F)F)c1 — remaining binding (binding, competition with immobilised ligand; 1 µM): 72%
CCN1CCN(Cc2ccc(C(=O)Nc3ccc(C)c(NCc4cnc5[nH]ccc5c4OC)c3)cc2C(F)(F)F)CC1 — remaining binding (binding, competition with immobilised ligand; 1 µM): 100%
Cc1cnc2nc1Nc1cccc(c1)COC/C=C/COCc1cc(ccc1OCCN1CCOCC1)N2 — remaining binding (binding, competition with immobilised ligand; 0.1 µM): 97%
COc1c(Cl)cccc1Nc1c(-c2ccncc2C#C[C@@]2(C)CCCN2C(=O)/C=C/CN(C)C)[nH]c2c1C(=O)NCC2 — remaining binding (cell-free assay, competition with immobilised ligand; 3 µM): 100%
CC(C)=CC1OC(C)(C)C2C=C3C(=O)C(Cl)=CC(O)C3C3C(O)C4OC4C(=O)C132 (centres unmarked) — remaining binding (cell-free assay, competition with immobilised ligand; 10 µM): 98%
CNC1C[S+]2CC[S+]3CC[S+](C1)[Ru-4]321([N]=C=S)[n]2c3ccc(OC)cc3c3c4c(c5cc(F)c[n+]1c5c32)C(=O)NC4=O (centres unmarked) — remaining activity (0.1 µM): 99%
C=CC(=O)N1CCCC(n2c(=O)c3ncccc3n(Cc3ccc(Oc4ccccc4)cc3)c2=O)C1 (centres unmarked) — remaining binding (cell-free assay, competition with immobilised ligand; 1 µM): 100%
C=CC(=O)N1CCc2ccc(-n3c(=O)ccc4cnc5ccc(-c6cnn(C)c6)cc5c43)cc21 — remaining binding (KINOMEscan; 1 µM; reference: control): 99%
Cc1ccc(-c2c(/C=C(\C#N)C(=O)NC(C)C)n(CCCO)c3ncnc(N)c23)cc1 — remaining binding (cell-free assay, competition with immobilised ligand; 1 µM): 100%
Nc1ncc2c(n1)-c1c([nH]c3ccc(C4=CCOCC4)cc13)CCC2 — remaining binding (binding, competition with immobilised ligand; 1 µM): 96%
CNC(=O)C1CCN(c2cc(C)c(F)cc2NC(=O)c2ccc(-c3cc(O)ccc3C)c(C)c2)CC1 — remaining binding (binding, competition with immobilised ligand; 1 µM): 91%

Repeated from above:
C=CC(=O)N1CCCC(n2c(=O)c3ncccc3n(Cc3ccc(Oc4ccccc4)cc3)c2=O)C1 (centres unmarked) — remaining binding (cell-free assay, competition with immobilised ligand; 1 µM): 100%
